# Measurements of several laboratories.
# Every numbered part comes from another study and shows a few of its results, in no order.

# Set 1 — technique: protein-binding microarray; molecule type: double-stranded DNA, one strand shown; sample: in vitro; concentration: 2540 nM top; setting: 60-bp whole probe; together with: salmon DNA 0.4 mg/ml; relative to: random background probes; direction: higher = stronger binding
# Target: Interferon regulatory factor 3, full length, phosphomimetic (IRF3, Homo sapiens, UniProt Q14653, residues 1-427, S386D/S396D/S398D/S402D/T404D/S405D)
# Chain of UniProt Q14653 (whole entry, unmodified, looked up): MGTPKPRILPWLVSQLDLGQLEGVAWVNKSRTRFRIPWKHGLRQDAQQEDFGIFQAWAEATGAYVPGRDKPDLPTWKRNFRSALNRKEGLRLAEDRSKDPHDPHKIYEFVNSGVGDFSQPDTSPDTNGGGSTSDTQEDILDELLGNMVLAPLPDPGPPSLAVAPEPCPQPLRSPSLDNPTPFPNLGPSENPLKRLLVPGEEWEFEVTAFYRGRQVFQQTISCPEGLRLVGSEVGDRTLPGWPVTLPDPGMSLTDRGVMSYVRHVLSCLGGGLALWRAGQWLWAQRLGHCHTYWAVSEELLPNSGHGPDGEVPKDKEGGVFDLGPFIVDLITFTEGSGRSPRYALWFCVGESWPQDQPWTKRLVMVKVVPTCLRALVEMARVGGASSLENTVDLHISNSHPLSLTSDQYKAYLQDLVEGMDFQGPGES
Sequence,fitted relative affinity
GCCTAGCACTTAGATTTCATTTCCGATTAGTGCTAGGTCTTGATTCGCTTGACGCTGCTG,4.31 z-score
GCCTAGCACTCATGTTTGTCACTCTCAGAGTGCTAGGTCTTGATTCGCTTGACGCTGCTG,0.73 z-score
GCCTAGCACGCGATCCTCTCACCTCAGCCTGTGCTAGTCTTGATTCGCTTGACGCTGCTG,0.407 z-score

# Set 2 — technique: universal PBM; molecule type: double-stranded DNA, one strand shown; sample: in vitro; concentration: not given; direction: higher = stronger binding
# Target: Sal-like protein 4, full length isoform B (SALL4, Homo sapiens, UniProt Q9UJQ4-2, residues 1-616)
# Setting: 8-mer, flanks averaged, mean of replicates
Sequence,E-score
CAAACATA,0.191
TGTCGACA,0.146
CTCAATCA,0.0127

# Set 3 — technique: protein binding microarray; molecule type: double-stranded DNA, one strand shown; sample: in vitro; concentration: not given; relative to: not given; direction: higher = stronger binding
# Target: Histone acetyltransferase KAT6A, winged helix 2, GST fusion (KAT6A, Homo sapiens, UniProt Q92794, residues 85-181)
# Setting: 8-mer, flanks averaged, mean of 2 arrays, mostly near background
# Residues (chain): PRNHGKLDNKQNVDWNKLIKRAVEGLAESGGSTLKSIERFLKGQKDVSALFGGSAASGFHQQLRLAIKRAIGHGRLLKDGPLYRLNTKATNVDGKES
Sequence,E-score
GCCGCTGA,0.18
CATGTGGA,-0.146
GATGCACA,0.0542

# Mixed results
Substance,target,assay,system,setting,scale,quantity,result
"PhoQ, residues 284 288 289 292 302 303 HSYLQF","PhoP, residues 12 14 15 18 19 LFHKL (Escherichia coli, UniProt P23836)","Sort-seq, item: YFP reporter",E. coli,"PhoQ-PhoP variant library, together with: 10 µM Mg2+","relative to: high Mg2+ state, higher = stronger signaling",fold induction,6.25
